Published values collected from several papers.
“And” joins repeats or separate records; there may be more than shown. Numbers after ± are the reported error.
BLK SH2 domain: Tyrosine-protein kinase Blk, SH2 domain (BLK, Homo sapiens, UniProt P51451)
Chain of UniProt P51451 (whole entry, looked up): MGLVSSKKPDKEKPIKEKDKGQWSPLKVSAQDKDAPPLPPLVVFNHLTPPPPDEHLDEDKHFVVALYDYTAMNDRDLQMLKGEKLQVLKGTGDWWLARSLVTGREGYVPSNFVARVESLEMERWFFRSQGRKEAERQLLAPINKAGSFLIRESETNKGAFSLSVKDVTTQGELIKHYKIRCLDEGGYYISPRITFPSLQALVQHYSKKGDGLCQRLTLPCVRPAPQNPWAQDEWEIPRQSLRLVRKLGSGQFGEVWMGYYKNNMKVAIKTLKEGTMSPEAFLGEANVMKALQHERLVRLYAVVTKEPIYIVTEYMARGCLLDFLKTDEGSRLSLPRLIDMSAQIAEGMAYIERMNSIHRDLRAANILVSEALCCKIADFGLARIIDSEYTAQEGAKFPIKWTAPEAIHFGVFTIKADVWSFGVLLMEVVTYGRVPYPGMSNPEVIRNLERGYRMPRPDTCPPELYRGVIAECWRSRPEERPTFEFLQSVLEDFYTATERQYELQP
YES1 SH2 domain: Tyrosine-protein kinase Yes, SH2 domain (YES1, Homo sapiens, UniProt P07947)
Chain of UniProt P07947 (whole entry, looked up): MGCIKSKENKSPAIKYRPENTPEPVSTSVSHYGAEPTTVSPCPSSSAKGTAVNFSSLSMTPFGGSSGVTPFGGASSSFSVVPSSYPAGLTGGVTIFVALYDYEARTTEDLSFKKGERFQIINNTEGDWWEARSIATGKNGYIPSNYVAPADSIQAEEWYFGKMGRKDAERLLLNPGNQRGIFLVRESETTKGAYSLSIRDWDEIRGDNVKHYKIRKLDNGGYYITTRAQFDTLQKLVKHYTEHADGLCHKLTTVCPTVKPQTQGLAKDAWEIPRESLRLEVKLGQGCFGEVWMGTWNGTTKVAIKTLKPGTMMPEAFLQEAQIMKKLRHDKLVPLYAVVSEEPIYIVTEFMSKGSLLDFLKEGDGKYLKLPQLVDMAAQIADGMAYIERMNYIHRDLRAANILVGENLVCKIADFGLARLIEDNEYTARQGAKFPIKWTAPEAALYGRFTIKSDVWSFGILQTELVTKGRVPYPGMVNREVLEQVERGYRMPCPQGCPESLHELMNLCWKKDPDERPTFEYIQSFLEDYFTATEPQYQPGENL
PRT1: E3 ubiquitin-protein ligase PRT1 (PRT1, Arabidopsis thaliana, UniProt Q8LBL5)
Chain of UniProt P21553 (whole entry, looked up): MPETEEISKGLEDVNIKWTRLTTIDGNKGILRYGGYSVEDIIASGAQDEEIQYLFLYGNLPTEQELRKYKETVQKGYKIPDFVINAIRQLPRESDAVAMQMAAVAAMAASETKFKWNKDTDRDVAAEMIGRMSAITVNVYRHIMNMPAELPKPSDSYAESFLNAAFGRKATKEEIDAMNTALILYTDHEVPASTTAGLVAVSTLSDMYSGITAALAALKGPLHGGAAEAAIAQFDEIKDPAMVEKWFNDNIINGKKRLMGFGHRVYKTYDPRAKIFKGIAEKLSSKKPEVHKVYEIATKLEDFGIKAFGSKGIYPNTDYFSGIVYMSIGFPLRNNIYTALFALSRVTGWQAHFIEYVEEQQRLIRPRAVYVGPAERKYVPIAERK
Chain of UniProt Q8LBL5 (whole entry, looked up): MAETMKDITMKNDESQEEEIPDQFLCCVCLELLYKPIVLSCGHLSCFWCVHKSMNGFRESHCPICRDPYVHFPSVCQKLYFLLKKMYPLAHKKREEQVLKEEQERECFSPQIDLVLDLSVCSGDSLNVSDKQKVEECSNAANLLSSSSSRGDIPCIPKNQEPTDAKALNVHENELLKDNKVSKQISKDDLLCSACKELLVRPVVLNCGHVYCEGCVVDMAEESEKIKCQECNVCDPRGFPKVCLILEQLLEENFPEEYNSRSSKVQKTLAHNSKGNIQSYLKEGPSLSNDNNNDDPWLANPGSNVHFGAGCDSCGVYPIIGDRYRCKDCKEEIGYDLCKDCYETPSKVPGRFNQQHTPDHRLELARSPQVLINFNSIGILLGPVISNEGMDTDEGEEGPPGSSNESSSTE
Chain of UniProt Q70CQ1 (whole entry, looked up): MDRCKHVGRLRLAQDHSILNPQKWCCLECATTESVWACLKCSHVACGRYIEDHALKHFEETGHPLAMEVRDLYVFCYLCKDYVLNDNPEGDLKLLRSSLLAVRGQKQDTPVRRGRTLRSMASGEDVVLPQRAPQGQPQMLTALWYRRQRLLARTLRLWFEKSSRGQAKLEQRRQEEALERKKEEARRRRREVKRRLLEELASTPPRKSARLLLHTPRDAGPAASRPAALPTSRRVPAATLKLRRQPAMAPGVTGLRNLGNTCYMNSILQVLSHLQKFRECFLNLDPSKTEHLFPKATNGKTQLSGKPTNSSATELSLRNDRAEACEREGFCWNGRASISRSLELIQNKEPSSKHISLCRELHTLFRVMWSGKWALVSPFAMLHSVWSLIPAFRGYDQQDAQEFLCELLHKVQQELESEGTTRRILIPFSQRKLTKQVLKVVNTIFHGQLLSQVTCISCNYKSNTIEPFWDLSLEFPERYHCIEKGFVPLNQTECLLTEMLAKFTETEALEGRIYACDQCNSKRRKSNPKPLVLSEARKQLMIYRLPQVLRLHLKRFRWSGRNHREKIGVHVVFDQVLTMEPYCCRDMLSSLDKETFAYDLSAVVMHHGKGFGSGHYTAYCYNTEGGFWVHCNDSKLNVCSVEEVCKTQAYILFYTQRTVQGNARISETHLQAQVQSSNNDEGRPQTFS
Chain of UniProt Q9EP73 (whole entry, looked up): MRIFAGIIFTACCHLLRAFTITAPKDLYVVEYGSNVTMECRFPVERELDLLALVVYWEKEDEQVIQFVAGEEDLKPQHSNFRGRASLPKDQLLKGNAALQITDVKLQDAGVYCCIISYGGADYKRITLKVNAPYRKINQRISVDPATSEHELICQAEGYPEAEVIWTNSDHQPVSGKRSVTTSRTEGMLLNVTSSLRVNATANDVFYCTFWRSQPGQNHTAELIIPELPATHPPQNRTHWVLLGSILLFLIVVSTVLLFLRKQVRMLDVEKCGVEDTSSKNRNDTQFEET
Chain of UniProt O96013 (whole entry, looked up): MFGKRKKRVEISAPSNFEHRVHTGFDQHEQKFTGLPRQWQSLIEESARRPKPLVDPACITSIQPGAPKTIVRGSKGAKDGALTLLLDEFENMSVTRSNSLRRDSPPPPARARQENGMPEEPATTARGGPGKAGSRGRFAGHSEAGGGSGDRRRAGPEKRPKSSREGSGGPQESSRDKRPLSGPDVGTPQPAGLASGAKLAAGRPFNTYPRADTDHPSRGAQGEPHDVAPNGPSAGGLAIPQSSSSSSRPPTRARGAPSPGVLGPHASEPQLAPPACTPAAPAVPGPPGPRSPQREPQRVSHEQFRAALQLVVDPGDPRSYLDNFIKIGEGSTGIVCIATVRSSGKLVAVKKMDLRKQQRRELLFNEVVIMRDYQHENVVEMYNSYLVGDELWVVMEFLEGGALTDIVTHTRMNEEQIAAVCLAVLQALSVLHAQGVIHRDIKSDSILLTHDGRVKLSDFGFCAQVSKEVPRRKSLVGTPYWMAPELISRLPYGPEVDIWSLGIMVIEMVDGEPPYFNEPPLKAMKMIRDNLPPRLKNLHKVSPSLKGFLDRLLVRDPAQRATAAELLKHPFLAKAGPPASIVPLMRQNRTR
Chain of UniProt P03023 (whole entry, unmodified, looked up): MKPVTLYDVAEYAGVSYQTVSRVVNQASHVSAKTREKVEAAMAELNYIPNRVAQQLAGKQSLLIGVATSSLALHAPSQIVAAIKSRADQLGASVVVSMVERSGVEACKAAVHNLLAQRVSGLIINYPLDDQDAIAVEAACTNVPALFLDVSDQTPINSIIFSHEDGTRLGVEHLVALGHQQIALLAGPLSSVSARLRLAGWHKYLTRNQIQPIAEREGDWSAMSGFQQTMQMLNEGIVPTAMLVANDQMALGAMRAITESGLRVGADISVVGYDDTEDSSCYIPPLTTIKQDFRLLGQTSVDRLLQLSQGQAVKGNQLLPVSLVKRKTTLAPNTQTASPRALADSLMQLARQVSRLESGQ

Structure (SMILES) | target | assay | system | conditions | Kd
CC[C@H](C)[C@H](NC(=O)[C@H](Cc1ccc(O)cc1)NC(=O)[C@H](CCC(=O)O)NC(=O)[C@H](Cc1c[nH]cn1)NC(=O)CNC(=O)[C@H](CC(=O)O)NC(=O)[C@H](CO)NC(=O)[C@H](CO)NC(=O)[C@@H](NC(=O)c1ccc2c(c1)C(=O)OC21c2ccc(N(C)C)cc2Oc2cc(N(C)C)ccc21)C(C)C)C(=O)N[C@@H](Cc1ccc(OP(=O)(O)O)cc1)C(=O)N[C@H](C(=O)N[C@@H](CC(=O)O)C(=O)N1CCC[C@H]1C(=O)N[C@@H](CCSC)C(=O)N[C@@H](CCC(N)=O)C(=O)N[C@@H](CC(C)C)C(=O)N1CCC[C@H]1C(=O)N[C@@H](CC(=O)O)C(=O)O)C(C)C | BLK SH2 domain | binding | – | – | 1.9 µM
CC(C)S[C@@H]1O[C@H](CO)[C@H](O)[C@H](O)[C@H]1O | lacI (Escherichia coli, UniProt P03023, D149A/N125A) | binding, fluorescence titration | – | no operator DNA | 8.5 ± 0.2 µM
CC[C@H](CO)Nc1nc(NCc2ccc(-c3ccccn3)cc2)c2ncn(C(C)C)c2n1 | PAK4 (Homo sapiens, UniProt O96013) | binding, competition affinity chromatography | SH-SY5Y cell extract | – | 10.6 µM
C[C@H](NC(=O)[C@@H](NC(=O)[C@H](CO)NC(=O)[C@H](Cc1c[nH]cn1)NC(=O)[C@@H]1CCCN1C(=O)[C@H](CC(=O)O)NC(=O)[C@H](CCC(N)=O)NC(=O)[C@H](Cc1ccc(OP(=O)(O)O)cc1)NC(=O)[C@H](Cc1c[nH]cn1)NC(=O)[C@@H]1CCCN1C(=O)[C@H](CC(=O)O)NC(=O)[C@H](CCCNC(=N)N)NC(=O)[C@H](CO)NC(=O)[C@@H]1CCCN1C(=O)[C@H](C)NC(=O)[C@@H]1CCCN1C(=O)[C@H](CC(N)=O)NC(=O)c1ccc2c(c1)C(=O)OC21c2ccc(N(C)C)cc2Oc2cc(N(C)C)ccc21)[C@@H](C)O)C(=O)N[C@@H](CC(=O)O)C(=O)O | YES1 SH2 domain | binding | – | – | 0.378 µM
CC(=O)CCCNC(=O)CCNC(=O)[C@H](O)C(C)(C)COP(=O)(O)OP(=O)(O)OC[C@H]1O[C@@H](n2cnc3c(N)ncnc32)[C@H](O)[C@@H]1OP(=O)(O)O | gltA, with oxaloacetate (Thermoplasma acidophilum, UniProt P21553) | binding, CD titration | – | pH 8, 20 °C | 1.64 µM and 1.6 µM
C[C@H](NC(=O)[C@H](CCCCN)NC(=O)[C@@H](N)Cc1ccc(O)cc1)C(=O)O | PRT1 | ITC | – | pH 7.5, 25 °C | 14.9 ± 0.642 µM
CC[C@H](C)[C@H](NC(=O)c1ccc2c(c1)C(=O)OC21c2ccc(N(C)C)cc2Oc2cc(N(C)C)ccc21)C(=O)N[C@@H](CCC(=O)O)C(=O)N[C@@H](CO)C(=O)N[C@@H](CO)C(=O)N[C@@H](CC(N)=O)C(=O)N[C@@H](Cc1ccc(O)cc1)C(=O)N[C@@H](CCSC)C(=O)N[C@@H](C)C(=O)N1CCC[C@H]1C(=O)N[C@@H](Cc1ccc(OP(=O)(O)O)cc1)C(=O)N[C@@H](CC(=O)O)C(=O)N[C@@H](CC(N)=O)C(=O)N[C@@H](Cc1ccc(O)cc1)C(=O)N[C@H](C(=O)N1CCC[C@H]1C(=O)N[C@@H](CO)C(=O)N[C@@H](C)C(=O)N[C@@H](CC(=O)O)C(=O)O)C(C)C | BLK SH2 domain | binding | – | – | 0.958 µM
Nc1ncnc2c1ncn2[C@@H]1O[C@H](COP(=O)(O)OP(=O)(O)NP(=O)(O)O)[C@@H](O)[C@H]1O | Cell cycle histidine kinase CckA, cytoplasmic region (Caulobacter vibrioides, UniProt Q9X688) | isothermal titration calorimetry | Caulobacter crescentus | 12 °C, with: without c-di-GMP | 10 µM and 9.7 µM
CC[C@@H](C)[C@@H](NC(=O)[C@@H](Cc1ccc(O)cc1)NC(=O)[C@H]1CCCN1C(=O)[C@@H](CCCNC(=N)N)NC(=O)[C@H](N)Cc1c[nH]cn1)C(=O)N[C@H](C)C(=O)N[C@H](Cc1c[nH]cn1)C(=O)N[C@H](CCCNC(=N)N)C(=O)N[C@H](CCCCNC(=O)c1cccc(S(=O)(=O)F)c1)C(=O)N[C@H](Cc1ccc(O)cc1)C(=O)N[C@H](CO)C(=O)N[C@H](Cc1ccccc1)C(N)=O | Cd274 (Mus musculus, UniProt Q9EP73) | microscale thermophoresis | – | 6 h, His-tagged protein | 2.8 ± 3.3 µM
C[C@H](NC(=O)[C@H](C)NC(=O)[C@@H](N)Cc1c[nH]c2ccccc12)C(=O)O | PRT1 | ITC | – | pH 7.5, 25 °C | 4.29 ± 0.76 µM
O=C(O)CNC(=O)c1cccnc1 | Ubiquitin carboxyl-terminal hydrolase 49, ZnF-UBD domain (USP49, Homo sapiens, UniProt Q70CQ1) | – | – | – | > 1000 µM
CSCC[C@H](NC(=O)[C@H](CC(=O)O)NC(=O)c1ccc2c(c1)C(=O)OC21c2ccc(N(C)C)cc2Oc2cc(N(C)C)ccc21)C(=O)N[C@@H](CO)C(=O)N[C@@H](CCCCN)C(=O)N[C@@H](CC(=O)O)C(=O)N[C@@H](CCC(=O)O)C(=O)N[C@@H](CO)C(=O)N[C@H](C(=O)N[C@@H](CC(=O)O)C(=O)N[C@@H](Cc1ccc(OP(=O)(O)O)cc1)C(=O)N[C@H](C(=O)N1CCC[C@H]1C(=O)N[C@@H](CCSC)C(=O)N[C@@H](CC(C)C)C(=O)N[C@@H](CC(=O)O)C(=O)N[C@@H](CCSC)C(=O)N[C@@H](CCCCN)C(=O)N[C@@H](CC(=O)O)C(=O)O)C(C)C)C(C)C | Phosphatidylinositol 3-kinase regulatory subunit gamma, SH2 domain (Homo sapiens, UniProt Q92569) | binding | – | – | 0.01 µM
Cn1c2cccc(=O)c-2nc2ccccc21 | Multidrug resistance operon repressor (mexR, Pseudomonas aeruginosa, UniProt P52003, C62A/M61A/Q60A) | – | – | – | 258 µM
N[C@@H](CO)C(=O)O | spt (Sphingomonas paucimobilis, UniProt Q93UV0, R378K) | binding | – | – | 1200 µM
CSCC[C@H](NC(=O)CNC(=O)[C@H](Cc1ccccc1)NC(=O)[C@H](CC(=O)O)NC(=O)CNC(=O)c1ccc2c(c1)C(=O)OC21c2ccc(N(C)C)cc2Oc2cc(N(C)C)ccc21)C(=O)N[C@@H](CO)C(=O)N[C@@H](CCCNC(=N)N)C(=O)N[C@@H](CC(=O)O)C(=O)N[C@H](C(=O)N[C@@H](Cc1ccc(OP(=O)(O)O)cc1)C(=O)N[C@@H](CO)C(=O)N[C@H](C(=O)N[C@@H](CC(=O)O)C(=O)N[C@@H](Cc1ccc(O)cc1)C(=O)N[C@@H](Cc1ccc(O)cc1)C(=O)N[C@@H](CCCNC(=N)N)C(=O)N[C@H](C(=O)N[C@@H](CC(=O)O)C(=O)O)C(C)C)[C@@H](C)O)C(C)C | YES1 SH2 domain | binding | – | – | 0.545 µM
O=C(O)C(F)(F)C(F)(F)C(F)(F)C(F)(F)C(F)(F)C(F)(F)C(F)(F)F | Albumin (ALB, Homo sapiens, UniProt P02768) | isothermal titration calorimetry | – | 25 °C, high-affinity site, two-site model | 0.107 µM
